Results collected from several papers.
A part holds a random share of what one study measured.
Chain of UniProt P33261 (whole entry, looked up): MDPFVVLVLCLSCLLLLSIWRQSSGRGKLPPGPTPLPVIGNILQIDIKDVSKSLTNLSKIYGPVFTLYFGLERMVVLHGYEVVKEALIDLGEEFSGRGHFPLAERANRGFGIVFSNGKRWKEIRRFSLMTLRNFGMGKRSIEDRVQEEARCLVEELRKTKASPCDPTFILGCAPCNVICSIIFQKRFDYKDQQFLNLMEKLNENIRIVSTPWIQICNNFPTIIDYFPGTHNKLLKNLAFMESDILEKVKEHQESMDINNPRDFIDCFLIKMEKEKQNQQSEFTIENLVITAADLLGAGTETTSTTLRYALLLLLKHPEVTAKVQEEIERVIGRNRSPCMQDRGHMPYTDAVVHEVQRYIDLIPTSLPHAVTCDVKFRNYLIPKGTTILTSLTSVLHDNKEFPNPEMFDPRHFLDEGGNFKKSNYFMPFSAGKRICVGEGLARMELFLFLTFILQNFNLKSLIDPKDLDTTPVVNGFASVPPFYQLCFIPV
Chain of UniProt P10635 (whole entry, looked up): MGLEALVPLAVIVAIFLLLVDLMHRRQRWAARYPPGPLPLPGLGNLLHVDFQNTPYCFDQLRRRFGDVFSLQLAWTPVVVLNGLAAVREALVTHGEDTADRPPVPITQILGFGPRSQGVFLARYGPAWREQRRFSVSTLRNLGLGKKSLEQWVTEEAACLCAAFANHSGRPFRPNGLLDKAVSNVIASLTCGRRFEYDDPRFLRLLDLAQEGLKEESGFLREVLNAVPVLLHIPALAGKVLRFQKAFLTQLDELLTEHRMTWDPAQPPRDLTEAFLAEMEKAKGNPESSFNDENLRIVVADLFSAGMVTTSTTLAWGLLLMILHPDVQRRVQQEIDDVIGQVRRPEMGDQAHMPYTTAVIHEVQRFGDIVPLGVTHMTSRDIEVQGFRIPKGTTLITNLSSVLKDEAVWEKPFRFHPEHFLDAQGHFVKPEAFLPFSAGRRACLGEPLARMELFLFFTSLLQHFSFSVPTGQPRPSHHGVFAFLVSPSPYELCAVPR
Chain of UniProt P10632 (whole entry, looked up): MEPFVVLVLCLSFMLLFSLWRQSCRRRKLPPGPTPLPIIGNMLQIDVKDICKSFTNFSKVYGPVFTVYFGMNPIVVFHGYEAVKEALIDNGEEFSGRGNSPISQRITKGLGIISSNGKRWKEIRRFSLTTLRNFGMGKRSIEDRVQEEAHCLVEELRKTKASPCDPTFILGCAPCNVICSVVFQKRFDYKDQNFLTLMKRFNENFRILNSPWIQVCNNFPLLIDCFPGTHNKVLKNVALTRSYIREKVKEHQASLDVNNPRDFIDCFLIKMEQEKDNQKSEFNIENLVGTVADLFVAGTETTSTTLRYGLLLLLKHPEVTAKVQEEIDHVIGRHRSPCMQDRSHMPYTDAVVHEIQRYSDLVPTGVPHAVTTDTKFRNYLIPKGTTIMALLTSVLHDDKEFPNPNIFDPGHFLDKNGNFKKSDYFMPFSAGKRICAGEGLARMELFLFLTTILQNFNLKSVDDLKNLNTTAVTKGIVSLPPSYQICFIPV

Set 1 — observed: kinase activity; mode: inhibitor; technique: ADP-Glo; concentration: 0.0741 µM
Target: Cyclin-dependent kinase 12, with cyclin K (CDK12, Homo sapiens, UniProt Q9NYV4)
Chain of UniProt Q9NYV4 (whole entry, looked up): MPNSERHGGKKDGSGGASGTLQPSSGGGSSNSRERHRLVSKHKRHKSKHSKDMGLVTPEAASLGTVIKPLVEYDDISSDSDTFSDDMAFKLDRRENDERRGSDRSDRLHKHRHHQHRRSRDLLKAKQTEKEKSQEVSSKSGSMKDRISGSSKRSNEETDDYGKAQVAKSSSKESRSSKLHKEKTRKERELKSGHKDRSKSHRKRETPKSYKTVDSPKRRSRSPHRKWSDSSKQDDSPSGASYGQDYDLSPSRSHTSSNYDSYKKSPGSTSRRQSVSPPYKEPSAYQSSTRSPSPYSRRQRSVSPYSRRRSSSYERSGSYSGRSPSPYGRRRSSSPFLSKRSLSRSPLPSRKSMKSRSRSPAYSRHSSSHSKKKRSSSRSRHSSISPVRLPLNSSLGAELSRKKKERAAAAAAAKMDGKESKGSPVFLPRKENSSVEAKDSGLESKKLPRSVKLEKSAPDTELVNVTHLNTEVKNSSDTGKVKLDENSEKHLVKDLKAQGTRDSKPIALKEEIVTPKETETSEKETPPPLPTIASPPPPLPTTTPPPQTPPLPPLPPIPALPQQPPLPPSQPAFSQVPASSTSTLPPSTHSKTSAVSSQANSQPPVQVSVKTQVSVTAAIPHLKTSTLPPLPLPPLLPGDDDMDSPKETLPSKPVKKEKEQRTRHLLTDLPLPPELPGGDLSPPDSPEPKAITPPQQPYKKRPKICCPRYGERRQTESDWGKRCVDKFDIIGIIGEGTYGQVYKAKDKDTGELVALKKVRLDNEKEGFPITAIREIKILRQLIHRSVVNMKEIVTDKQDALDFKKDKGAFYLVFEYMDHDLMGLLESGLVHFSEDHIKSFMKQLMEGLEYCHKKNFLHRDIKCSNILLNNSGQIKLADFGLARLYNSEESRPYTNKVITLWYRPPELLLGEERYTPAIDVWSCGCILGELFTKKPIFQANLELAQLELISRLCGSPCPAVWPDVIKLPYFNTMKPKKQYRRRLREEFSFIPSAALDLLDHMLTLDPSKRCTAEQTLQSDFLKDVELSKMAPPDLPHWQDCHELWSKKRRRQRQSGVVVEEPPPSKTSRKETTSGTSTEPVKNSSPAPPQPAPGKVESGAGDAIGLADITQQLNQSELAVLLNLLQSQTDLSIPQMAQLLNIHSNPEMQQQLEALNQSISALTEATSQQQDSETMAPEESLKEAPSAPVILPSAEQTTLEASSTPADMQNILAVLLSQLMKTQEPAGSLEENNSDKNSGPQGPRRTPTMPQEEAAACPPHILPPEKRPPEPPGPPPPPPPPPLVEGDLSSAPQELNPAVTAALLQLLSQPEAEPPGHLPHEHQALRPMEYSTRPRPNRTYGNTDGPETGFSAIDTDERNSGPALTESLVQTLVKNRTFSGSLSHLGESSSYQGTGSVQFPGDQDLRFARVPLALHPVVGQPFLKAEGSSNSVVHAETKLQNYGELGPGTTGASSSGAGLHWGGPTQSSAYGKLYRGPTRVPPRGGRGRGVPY
| SMILES | inhibition |
| --- | --- |
| CCCCOc1nc(NCc2nc3cc(Cl)c(Cl)cc3[nH]2)c2ncn(CC)c2n1 | 18.7% |
| CCn1cnc2c(NCc3nc4cc(Cl)c(Cl)cc4[nH]3)nc(N3CCN(C(=O)c4ccccn4)CC3)nc21 | 30.9% |
| CCn1cnc2c(NCc3nc4cc(F)c(F)cc4[nH]3)nc(N3CCn4ncnc4C3)nc21 | 27.9% |
| CC(=O)N1CCN(c2nc(NCc3nc4cc(Cl)c(Cl)cc4[nH]3)c3ncn(C(C)C)c3n2)CC1 | -6.6% |
| CCn1cnc2c(NCc3nc4cc(Cl)c(Cl)cc4[nH]3)nc(N3CCN(C(=O)c4cccnc4)CC3)nc21 | 28.4% |
| CCn1cnc2c(NCc3nc4cc(Cl)c(Cl)cc4[nH]3)nc(N3CCN(C(=O)[C@H](C)NC(C)=O)CC3)nc21 | 11% |
| CCn1cnc2c(NCc3nc4ccc(F)c(F)c4[nH]3)nc(N3CCn4ncnc4C3)nc21 | 31.6% |
| Cn1cc(-n2cnc3c(NCc4nc5cc(Cl)c(Cl)cc5[nH]4)nc(N4CCNCC4)nc32)cn1 | 11.6% |

Set 2 — observed: enzyme activity; matrix: human liver microsomes; baseline: negative control
Compound: Cn1cc(-c2cccc(CN3CCC4(CC3)COc3c4ccc4c3CN([C@H]3CCC(=O)NC3=O)C4=O)c2)cn1
CYP3A4: Cytochrome P450 3A4 (CYP3A4, Homo sapiens, UniProt P08684)
Chain of UniProt P08684 (whole entry, looked up): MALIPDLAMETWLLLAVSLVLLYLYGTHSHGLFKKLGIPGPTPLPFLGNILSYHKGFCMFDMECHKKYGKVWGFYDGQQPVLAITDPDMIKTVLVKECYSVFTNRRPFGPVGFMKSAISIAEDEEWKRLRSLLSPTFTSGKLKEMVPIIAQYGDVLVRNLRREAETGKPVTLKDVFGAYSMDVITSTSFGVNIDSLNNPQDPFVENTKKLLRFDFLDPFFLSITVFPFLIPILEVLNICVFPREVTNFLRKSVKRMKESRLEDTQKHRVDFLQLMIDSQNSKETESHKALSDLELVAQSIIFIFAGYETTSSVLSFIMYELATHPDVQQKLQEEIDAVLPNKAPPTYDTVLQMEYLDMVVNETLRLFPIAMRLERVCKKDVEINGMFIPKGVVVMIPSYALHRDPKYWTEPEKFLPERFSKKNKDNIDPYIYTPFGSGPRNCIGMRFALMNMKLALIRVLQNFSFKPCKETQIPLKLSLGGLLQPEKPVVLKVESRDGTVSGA
CYP2B6: Cytochrome P450 2B6 (CYP2B6, Homo sapiens, UniProt P20813)
Chain of UniProt P20813 (whole entry, looked up): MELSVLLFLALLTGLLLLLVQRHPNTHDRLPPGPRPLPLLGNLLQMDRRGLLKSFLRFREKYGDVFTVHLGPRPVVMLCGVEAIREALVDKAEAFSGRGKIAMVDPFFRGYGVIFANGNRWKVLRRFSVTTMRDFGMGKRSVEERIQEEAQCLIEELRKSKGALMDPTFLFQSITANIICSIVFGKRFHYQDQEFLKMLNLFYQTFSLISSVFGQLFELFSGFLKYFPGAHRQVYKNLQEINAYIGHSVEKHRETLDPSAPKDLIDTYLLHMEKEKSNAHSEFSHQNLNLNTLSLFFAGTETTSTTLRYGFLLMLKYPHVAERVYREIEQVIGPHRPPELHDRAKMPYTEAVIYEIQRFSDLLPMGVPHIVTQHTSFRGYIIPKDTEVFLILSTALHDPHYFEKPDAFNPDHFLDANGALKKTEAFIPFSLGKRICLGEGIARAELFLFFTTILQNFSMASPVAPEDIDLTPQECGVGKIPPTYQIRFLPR
CYP1A2: Cytochrome P450 1A2 (CYP1A2, Homo sapiens, UniProt P05177)
Chain of UniProt P05177 (whole entry, looked up): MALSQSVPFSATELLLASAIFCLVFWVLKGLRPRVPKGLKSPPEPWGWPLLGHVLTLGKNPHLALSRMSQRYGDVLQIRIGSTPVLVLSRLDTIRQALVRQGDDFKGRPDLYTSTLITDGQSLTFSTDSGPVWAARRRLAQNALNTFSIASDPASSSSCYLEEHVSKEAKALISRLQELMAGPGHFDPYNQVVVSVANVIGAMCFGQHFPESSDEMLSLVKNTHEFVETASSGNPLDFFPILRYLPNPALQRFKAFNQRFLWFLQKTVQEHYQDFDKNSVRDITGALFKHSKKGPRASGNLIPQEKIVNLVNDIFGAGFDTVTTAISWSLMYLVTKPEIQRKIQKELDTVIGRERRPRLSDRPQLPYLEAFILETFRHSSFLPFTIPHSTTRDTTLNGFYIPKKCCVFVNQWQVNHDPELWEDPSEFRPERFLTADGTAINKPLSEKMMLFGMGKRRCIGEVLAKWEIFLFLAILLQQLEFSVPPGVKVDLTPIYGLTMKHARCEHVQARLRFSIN
| target | conditions | remaining activity [%] |
| --- | --- | --- |
| Cytochrome P450 2C8 (CYP2C8, Homo sapiens, UniProt P10632) | 1.11 µM | 108 |
| CYP3A4 | 0.37 µM, with: midazolam substrate | 92.7 |
| CYP2B6 | 3.33 µM | 85 |
| CYP1A2 | 0.12 µM | 84.6 |
| CYP2B6 | 0.12 µM | 86.2 |
| CYP1A2 | 10.00 µM | 90.7 |
| CYP2C19 (Homo sapiens, UniProt P33261) | 0.0137 µM | 105 |
| CYP3A4 | 0.04 µM, with: testosterone substrate | 99.1 |
| CYP1A2 | 3.33 µM | 89.5 |
| Cytochrome P450 2D6 (CYP2D6, Homo sapiens, UniProt P10635) | 3.33 µM | 98.2 |

Set 3 — organism: Arabidopsis thaliana; strain: Col-0; concentration: 25 µg/mL; notes: seed germination
| Structure (SMILES) | root length |
| --- | --- |
| CC(C)(C)c1ccc(Oc2ccc3c(c2)OC(O)(C(=O)O)C(=O)N3Cc2ccccc2)cc1 (stereo not shown) | 0.58 cm |
| O=C(O)C1(O)Oc2ccccc2N(Cc2ccccc2)C1=O (stereo not shown) | 1.11 cm |
| O=C(O)C1Oc2cc(F)ccc2N(Cc2ccccc2)C1=O (stereo not shown) | 0.949 cm |
| CCN1C(=O)C(O)(C(=O)O)Oc2cc(F)ccc21 (stereo not shown) | 0.756 cm |
| O=C(O)C1(O)Oc2cc(Cl)ccc2N(Cc2ccccc2)C1=O (stereo not shown) | 1.08 cm |
| CCCN1C(=O)C(O)(C(=O)O)Oc2cc(F)ccc21 (stereo not shown) | 0.581 cm |
| Cc1ccc2c(c1)OC(O)(C(=O)O)C(=O)N2Cc1ccccc1 (stereo not shown) | 1.09 cm |
| COc1ccc2c(c1)OC(O)(C(=O)O)C(=O)N2Cc1ccccc1 (stereo not shown) | 1.04 cm |

Set 4 — organism: Leishmania donovani; cell line: THP-1; strain: DD8; matrix: intracellular amastigotes
Baseline: THP-1 cytotoxicity over amastigote activity
| SMILES | selectivity index |
| --- | --- |
| Clc1ccc2nc3c(c(Nc4ccc(Oc5ccccc5)cc4)c2c1)CCC3 | 2.93 |
| Cc1ccc2nc3c(c(Nc4ccc(Br)cc4)c2c1)CCC3 | 2.28 |
| Cc1ccc(Nc2c3c(nc4ccccc24)CCC3)cc1 | 4.36 |
| Clc1ccc(Nc2c3c(nc4ccccc24)CCC3)cc1 | 1.74 |
| CCOC(=O)c1ccc(Nc2c3c(nc4ccccc24)CCC3)cc1 | 2.08 |
| Fc1cccc(Nc2c3c(nc4ccccc24)CCC3)c1 | 1.83 |
| COC(=O)c1cccc(Nc2c3c(nc4ccccc24)CCC3)c1 | 2.65 |
| Clc1ccc2nc3c(c(Nc4ccc5c(c4)OCCO5)c2c1)CCC3 | 2.11 |

For quick reference, copied from above (set 1):
| SMILES | inhibition |
| --- | --- |
| CCn1cnc2c(NCc3nc4cc(Cl)c(Cl)cc4[nH]3)nc(N3CCN(C(=O)[C@H](C)NC(C)=O)CC3)nc21 | 11% |
| CC(=O)N1CCN(c2nc(NCc3nc4cc(Cl)c(Cl)cc4[nH]3)c3ncn(C(C)C)c3n2)CC1 | -6.6% |
| CCn1cnc2c(NCc3nc4cc(Cl)c(Cl)cc4[nH]3)nc(N3CCN(C(=O)c4ccccn4)CC3)nc21 | 30.9% |
| Cn1cc(-n2cnc3c(NCc4nc5cc(Cl)c(Cl)cc5[nH]4)nc(N4CCNCC4)nc32)cn1 | 11.6% |
